Assay results from different studies.
A part holds a random share of what one study measured. Positions count from the first letter of the parent shown.

Sample 1
Target: Ras GTPase-activating protein-binding protein 1, full length (G3BP1, Homo sapiens, UniProt Q13283)
UniProt Q13283, sequence (whole entry, looked up): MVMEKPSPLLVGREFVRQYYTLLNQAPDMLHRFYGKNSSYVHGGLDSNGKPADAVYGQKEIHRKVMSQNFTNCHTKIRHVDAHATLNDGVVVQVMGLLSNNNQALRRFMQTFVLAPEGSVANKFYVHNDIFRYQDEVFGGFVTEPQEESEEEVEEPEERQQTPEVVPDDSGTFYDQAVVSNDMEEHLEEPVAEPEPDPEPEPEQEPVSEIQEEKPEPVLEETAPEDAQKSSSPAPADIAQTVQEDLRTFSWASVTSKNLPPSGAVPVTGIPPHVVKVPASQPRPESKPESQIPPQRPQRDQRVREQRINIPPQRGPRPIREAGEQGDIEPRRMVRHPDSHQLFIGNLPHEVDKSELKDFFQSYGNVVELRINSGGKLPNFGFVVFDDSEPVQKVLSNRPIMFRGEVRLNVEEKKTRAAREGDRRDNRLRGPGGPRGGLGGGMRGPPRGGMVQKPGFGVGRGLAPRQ
Technique: RNA Bind-n-Seq
Form: RNA
Sample: in vitro
Concentration: 200 nM
Notes: whole 134-nt RNA, ends assumed
Together with: 150 mM KCl
Baseline: input library
Reading: higher = stronger binding
Measurement: log2 enrichment
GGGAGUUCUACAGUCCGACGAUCUGGGAGGUGGAUUUUGUUUAUUUUUUUAGCUCAUUUCCAGGGGUGGGAAUUUUUUUUUAAUAUGUGUCAUGAAUAAAGUUAUUUUUGAAAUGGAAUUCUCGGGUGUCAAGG: 0.136
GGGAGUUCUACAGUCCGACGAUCCCUCAAGUCCUGUGCUACACAUCGUAUGUACCGAAUCGGGGAGGAGGAGGGGAAAGUAUUAUGUUACGCCGUUCGGAUCUGCACUUCCAGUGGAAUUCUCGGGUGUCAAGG: 0.578
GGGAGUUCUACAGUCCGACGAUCUAACUUUAGAGGAGGAUCUGAUGGAUAUGGCAGUGGACGUGGAUUUGGGGAUGGCUAUAAUGGGUAUGGAGGAGGACCUGGAGGUGGCGAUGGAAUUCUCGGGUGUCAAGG: 0.409
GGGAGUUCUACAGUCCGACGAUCCACAGACAACACGCACCCACAGAGACACAGAGGGAAGGGGUUGGGAUGGGGACAGGGUGCACAGCAGGGCGGGGUAGGACCCCAGCCCCUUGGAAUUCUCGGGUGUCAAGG: 2
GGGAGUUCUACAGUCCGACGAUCCACAGACAACACGCACCCACACAGACACAGAGGGAAGGGGUUGGGAUGGGGACAGUGUGCACAGCAGGGCGGGGUAGGACCCCAGCCCCUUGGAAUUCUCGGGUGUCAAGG: 1.71
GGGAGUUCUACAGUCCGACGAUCGCAGGAAGUAAAAACAAAUGGAAAUGCUUCGGAUAGUGGCAGGGGUGGGGGUUGCUAAGGAAAGGGUGGGAUGGGAGUUGGUAAAGAGUUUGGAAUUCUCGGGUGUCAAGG: 0.523
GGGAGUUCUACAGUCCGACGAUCUCAAGUCCUGUGCUACACAUCGUAUGUACCGAAUCGGAAAAAGGAAAGGAAAGGAAAGUAUUAUGUUACGCCGUUCGGAUCUGCACUUCCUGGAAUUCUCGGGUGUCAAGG: -1.36
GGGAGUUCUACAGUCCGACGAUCUGUGCUACACAUCGUAUGUACCGAAUCGGGGAAAAAAAGGGGAAAAAAAGGAAAAAAAGGGGAAAGUAUUAUGUUACGCCGUUCGGAUCUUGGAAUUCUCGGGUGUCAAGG: -0.464
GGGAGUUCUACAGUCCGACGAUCAGUCCUGUGCUACACAUCGUAUGUACCGAAUCAAACCCCCAAAUUUAAACCCCCAAAAAAGUAUUAUGUUACGCCGUUCGGAUCUGCACUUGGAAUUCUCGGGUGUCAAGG: -0.377
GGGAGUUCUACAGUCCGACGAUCUCCUCAAGUCCUGUGCUACACAUCGUAUGUACCGAAUCGGGUGGGGUGGUGGAAAGUAUUAUGUUACGCCGUUCGGAUCUGCACUUCCAGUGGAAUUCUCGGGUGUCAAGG: 0.494

Sample 2
Target: Histone acetyltransferase KAT6A, winged helix 2, GST fusion (KAT6A, Homo sapiens, UniProt Q92794, residues 85-181)
Technique: protein binding microarray
Form: double-stranded DNA, one strand shown
Sample: in vitro
Concentration: not given
Notes: 8-mer, flanks averaged, mean of 2 arrays, mostly near background
Baseline: not given
Reading: higher = stronger binding
Measurement: E-score
Residues (chain): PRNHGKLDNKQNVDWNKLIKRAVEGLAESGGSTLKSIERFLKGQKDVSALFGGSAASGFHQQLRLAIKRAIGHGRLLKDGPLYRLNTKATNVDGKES
GAAGTCTC: -0.175
AGCTGCTA: -0.0893
AACTTTGA: 0.0485
CAGTTCTC: -0.13
CCTATCGC: -0.0888
CCCGCCTA: 0.198
AGGGCCGC: 0.0941
CGAATGGA: 0.0311
GATTCCCC: -0.0476
CCCCCTAG: -0.097
ACTCGTCA: -0.124
ACTTCTCC: 0.018
ACACTAGA: -0.0639
AGGGGTAC: -0.0535
CGCAACAC: 0.119
AATCTCGG: 0.0847
ATTCCTCG: -0.0191
AAACGATA: -0.0923
AATCGTTA: -0.0602
CTTGTGCC: -0.0103
AACTGATG: -0.179
GTGCAATA: -0.168
AAGCCACG: -0.116
ACAGCCGC: 0.0771
AGTCATGG: -0.226

Sample 3
Target: CRIPT, C-terminal peptide
Technique: DHFR complementation, deep sequencing
Sample: yeast
Notes: single substitutions, model-inferred values
Baseline: wild type
Reading: higher = weaker binding
Measurement: binding free energy change
Starting sequence: ERBIN, PDZ domain 1 (human); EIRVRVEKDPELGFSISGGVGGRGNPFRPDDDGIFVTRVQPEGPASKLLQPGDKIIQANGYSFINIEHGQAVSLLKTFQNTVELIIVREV; partner TKNYKQTSV
I2F: -0.0287 kcal/mol
G52L: 1.02 kcal/mol
I66W: 0.0247 kcal/mol
E42W: 0.123 kcal/mol
T37F: 0.589 kcal/mol
S15H: 0.535 kcal/mol
L84M: 0.0403 kcal/mol
G43Q: 0.603 kcal/mol
G18Y: 1.05 kcal/mol
L84Q: 0.0657 kcal/mol
I64D: -0.0473 kcal/mol
E1I: 0.324 kcal/mol
L49S: 0.596 kcal/mol
I2C: 0.191 kcal/mol
I2P: 0.6 kcal/mol
G22I: 0.305 kcal/mol
H68N: 1.33 kcal/mol
G60C: 0.113 kcal/mol
E67F: 0.271 kcal/mol
L49E: 1.49 kcal/mol
I34E: 0.675 kcal/mol
G22Y: 0.535 kcal/mol

Sample 4
Target: RNA binding protein fox-1 homolog 2, RRM domain, GST-SBP tag (RBFOX2, Homo sapiens, UniProt O43251-10, residues 100-194)
Technique: RNA Bind-n-Seq
Form: RNA
Sample: in vitro
Concentration: 365 nM
Notes: natural RNA segment, single round, ends assumed
Baseline: no-protein control
Reading: higher = stronger binding
Measurement: RBNS enrichment (R)
Target sequence (chain): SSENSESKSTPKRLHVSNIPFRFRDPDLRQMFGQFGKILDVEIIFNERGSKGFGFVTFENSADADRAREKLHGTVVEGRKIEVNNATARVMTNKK
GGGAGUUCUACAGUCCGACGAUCCAACUUGGUCUUGUCAAAGAACACCGAUUCCACUCAACUAAGGCACCAGCCUGUUUCUGAGACCACAGAAGAAAACCCCAGGGAUGGAUUUAUGAACAGCUGUGUCUGCUUGGAAUUCUCGGGUGCCAA: 0.421
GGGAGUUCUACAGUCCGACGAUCAGAAUACACAAGCAGAGAAGGAUCGGGGUUAUGUCUCUUGGCAGUAGAUCCCAUUCAUACCUCUUCAAACCUAUUUGUUUUUUUUCUUUUGGGACUUAUAUGAUUUUAAAUGGAAUUCUCGGGUGCCAA: 0.559
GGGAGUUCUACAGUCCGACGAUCUGGCUGUGGCAAGCUGUGAGCCCUCGCCUUGUCUGGGCCAAUCUGAGGACUGAACUGACCAGAUAGCGGCCCCAUCACCCCUACUGCUCCUUGGACCCCUUGGCCCAACCUGGAAUUCUCGGGUGCCAA: 0.242
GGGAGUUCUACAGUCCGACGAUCUCAUUCCAAGCUAUCAUGCUCACGCCAUGUCAACAGCACCAUUUGUACUAAUGCUAAUAAUUCCAUCAAAAUUUGCCUGUGGAACAUAUAUUGUCCUUAACUUUAAGAUGUGGAAUUCUCGGGUGCCAA: 0.711
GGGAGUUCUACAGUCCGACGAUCGUGGCACGAUCUUGGCUUACUGCAACCUCCGUCUCCCAGGUUCAAGCGAUUCUCUUGCCUCAGCCUCCAGAGUAGCUGGGAUUACAGGCGCCCGCCAUCGUGCCCAGCUAUGGAAUUCUCGGGUGCCAA: 0.323
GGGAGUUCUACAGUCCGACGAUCUGUGACUUGUUCAUCCCCCCUUCCCUUCGCCCUCAUGUGGAAAGAGGAGCUGGGACCGCGGCGAGCAGCACGGAGCGGAAGGGAGAGCAGGGGAGAGAAGGCCUCAUCUCUGGAAUUCUCGGGUGCCAA: 0.777
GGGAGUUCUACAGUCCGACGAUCCCAACUACCACAUAGCAAGAGCCCAGCUCUUGGGAGCAUUGAGAUGUAAGCUCAGGGUUACACAGUUCCAAAUCUUGGGAAGGGGCUUUUCAGACAGACUGUUUGCUUUCUGGAAUUCUCGGGUGCCAA: 0.272
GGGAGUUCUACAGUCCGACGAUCAGUUCUCAGGAAUCCGACUGUAGAAUGCCACUCUGACUUCUUGAUGUUAAUCCAUGCUACCUAAAGUAAAGACAGGCUGCUUGGCCAAGUGGACACACUUGAGAAACAGUUGGAAUUCUCGGGUGCCAA: 0.471
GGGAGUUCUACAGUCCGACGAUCCCUAAACUGACUGAAGAGUUUGUCCUGACUUUAUUAAUUGCAGUCUCACAGAAUGCUCAUCAUUCUCCUUCAGCUGUUGCCAUUUUCUUUCAAUCUGAAAAUUAAAGACAUGGAAUUCUCGGGUGCCAA: 0.508
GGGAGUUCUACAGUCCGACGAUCGGGCCCAGCCUUUCUGUGGUAUCUGAUGCAGGAAGGACUGCAGUGGAUCAGAACUUACAAACCAAACUUUUAUUCUGAGAAACUGGCUGUACAAUAUCUAAAAAGAAAGUUGGAAUUCUCGGGUGCCAA: 0.47
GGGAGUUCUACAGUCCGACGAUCCUCAAGACUUCAAGGCCACUCUCCCCAUAAACAUCAGACUACAGAUUUAGGUGGAAGAGCAGCCAUGUUUGAAGGGCACAUGUGAUGAGUGGGGGGCAGCAAGAUGCCAUUGGAAUUCUCGGGUGCCAA: 1.04
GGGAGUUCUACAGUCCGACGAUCACUGCCCAACCUUUCCUGAUAAUCGUGGCAUGCGCCCUUUCCUCUUCCCUGCCCCACCCCCUGGCCGCAGCAGGCCAGCACUGCAGAGUUUGGGUGCUGGUGGUGUGGCUUGGAAUUCUCGGGUGCCAA: 1.55

Single results of other studies
PhoQ, residues 284 288 289 292 302 303 NLMGRA
fold induction (PhoP, residues 12 14 15 18 19 AQALL (Escherichia coli, UniProt P23836); Sort-seq, refers to: YFP reporter; E. coli; PhoQ-PhoP variant library, together with: 10 µM Mg2+; baseline: high Mg2+ state, higher = stronger signaling): 8.17

Excerpt of the above (sample 4):
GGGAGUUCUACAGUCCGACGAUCGUGGCACGAUCUUGGCUUACUGCAACCUCCGUCUCCCAGGUUCAAGCGAUUCUCUUGCCUCAGCCUCCAGAGUAGCUGGGAUUACAGGCGCCCGCCAUCGUGCCCAGCUAUGGAAUUCUCGGGUGCCAA: 0.323
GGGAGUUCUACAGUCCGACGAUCAGAAUACACAAGCAGAGAAGGAUCGGGGUUAUGUCUCUUGGCAGUAGAUCCCAUUCAUACCUCUUCAAACCUAUUUGUUUUUUUUCUUUUGGGACUUAUAUGAUUUUAAAUGGAAUUCUCGGGUGCCAA: 0.559
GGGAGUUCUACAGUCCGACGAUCUCAUUCCAAGCUAUCAUGCUCACGCCAUGUCAACAGCACCAUUUGUACUAAUGCUAAUAAUUCCAUCAAAAUUUGCCUGUGGAACAUAUAUUGUCCUUAACUUUAAGAUGUGGAAUUCUCGGGUGCCAA: 0.711
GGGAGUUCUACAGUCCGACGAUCACUGCCCAACCUUUCCUGAUAAUCGUGGCAUGCGCCCUUUCCUCUUCCCUGCCCCACCCCCUGGCCGCAGCAGGCCAGCACUGCAGAGUUUGGGUGCUGGUGGUGUGGCUUGGAAUUCUCGGGUGCCAA: 1.55
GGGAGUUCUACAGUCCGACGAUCCCAACUACCACAUAGCAAGAGCCCAGCUCUUGGGAGCAUUGAGAUGUAAGCUCAGGGUUACACAGUUCCAAAUCUUGGGAAGGGGCUUUUCAGACAGACUGUUUGCUUUCUGGAAUUCUCGGGUGCCAA: 0.272
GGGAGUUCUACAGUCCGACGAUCCUCAAGACUUCAAGGCCACUCUCCCCAUAAACAUCAGACUACAGAUUUAGGUGGAAGAGCAGCCAUGUUUGAAGGGCACAUGUGAUGAGUGGGGGGCAGCAAGAUGCCAUUGGAAUUCUCGGGUGCCAA: 1.04
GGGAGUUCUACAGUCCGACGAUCGGGCCCAGCCUUUCUGUGGUAUCUGAUGCAGGAAGGACUGCAGUGGAUCAGAACUUACAAACCAAACUUUUAUUCUGAGAAACUGGCUGUACAAUAUCUAAAAAGAAAGUUGGAAUUCUCGGGUGCCAA: 0.47
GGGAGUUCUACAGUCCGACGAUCUGUGACUUGUUCAUCCCCCCUUCCCUUCGCCCUCAUGUGGAAAGAGGAGCUGGGACCGCGGCGAGCAGCACGGAGCGGAAGGGAGAGCAGGGGAGAGAAGGCCUCAUCUCUGGAAUUCUCGGGUGCCAA: 0.777
